Published values of several laboratories.
Numbered parts are unrelated; each lists some results of a single study.

Study 1
Target: Fragile X messenger ribonucleoprotein 1, C-terminal low-complexity region (Fmr1, Mus musculus, UniProt P35922)
Method: RNA Bind-n-Seq
Molecule type: RNA
Medium: in vitro
Tested at: 200 nM
Notes: whole 134-nt RNA, ends assumed
With: 150 mM LiCl
Reference: input library
Reading: higher = stronger binding
Library: 7-deaza-guanosine replaces G
All sequences stand within: GGGAGUUCUACAGUCCGACGAUC … UGGAAUUCUCGGGUGUCAAGG
For `UGCUUCAUCGCCUUGUGCUCCUGCCCCUGGGAGCUGUGGAUCCCAGAUCCAGAUGACAGCCCACCUUGCUGGCAGGAUGCGCCAAUCCCC`, the log2 enrichment was -0.0237.
The log2 enrichment of `AGUCCUGUGCUACACAUCGUAUGUACCGAAUCGGGGUUUUUUUGGGGAGGGGUGGGGAAAGUAUUAUGUUACGCCGUUCGGAUCUGCACU` is reported as -0.649.
For `CCUGUGCUACACAUCGUAUGUACCGAAUCGGGCCCCCCCGGCCCCCCCGGGCCCCCCCGGAAAGUAUUAUGUUACGCCGUUCGGAUCUGC`, the log2 enrichment was 0.778.
`CUCAAGUCCUGUGCUACACAUCGUAUGUACCGAAUCGGAGGAAAGGUUUUUGGAAAGUAUUAUGUUACGCCGUUCGGAUCUGCACUUCCA` has a log2 enrichment of -0.973.
`AAGACAUUUGUUGUAUUUAUGGUUGUAACUGUACAUGCUUAUCAGGAUGAGACUGAAAGAAGGUAGGGCAAAAAUGGUUGAAUCUAUUUU` has a log2 enrichment of -1.71.
For `UUGUUCUGGCAUAAACAUAACAUUGAGAAGUCCCUUGCUGAUCUCCCUAAUUUCACUCCCUUUCCGGAUGAGUGGACAGUGGAAGAUAAA`, the log2 enrichment was -0.305.
For `CCUGUGCUACACAUCGUAUGUACCGAAUCGGGAAAAAAGGAAAAAAGGGGAAAAAAGGGGAAAGUAUUAUGUUACGCCGUUCGGAUCUGC`, the log2 enrichment was -0.0255.
With `AUAGAUUGCGCAGUCUCUUUGUGGAGAGGACUUGAUCAUUAAAGGAAUCAGCGUUCAUAUAUCCAAUGCCGAACCUAAGCACAAUAGCAA` the log2 enrichment was -0.622.
`AGUCCUGUGCUACACAUCGUAUGUACCGAAUCGGGGAAAAAGGGGUUUGGGGAGGGGAAAGUAUUAUGUUACGCCGUUCGGAUCUGCACU` has a log2 enrichment of -0.899.
For `GUCCUGUGCUACACAUCGUAUGUACCGAAUCGGGAAAAAGGAAAAAGGGGAAAAAGGGGAAAGUAUUAUGUUACGCCGUUCGGAUCUGCA`, the log2 enrichment was 0.668.
The log2 enrichment of `UUUUAUGUGGAGUUAUGAAGACCUACAGGCAGAGAGAGAAACAGGGGAGCAAGGUGCAAGAGUCCACAAAGGGACCUGAUGAAGCGAAGA` is reported as -0.43.

Study 2
Target: Histone acetyltransferase KAT6A, both winged helices, GST fusion (KAT6A, Homo sapiens, UniProt Q92794, residues 1-181)
Method: protein binding microarray
Molecule type: double-stranded DNA, one strand shown
Medium: in vitro
Tested at: not given
Notes: 8-mer, flanks averaged, mean of 2 arrays, mostly near background
Reference: not given
Reading: higher = stronger binding
Construct (chain): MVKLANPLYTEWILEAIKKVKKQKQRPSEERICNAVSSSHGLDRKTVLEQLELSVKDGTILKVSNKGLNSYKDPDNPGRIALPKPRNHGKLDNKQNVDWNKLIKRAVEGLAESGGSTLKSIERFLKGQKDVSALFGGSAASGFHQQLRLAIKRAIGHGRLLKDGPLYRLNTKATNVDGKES
`CGCGCACC` has an E-score of 0.262.
With `ACCGATCA` the E-score was 0.134.
With `ATACTTAA` the E-score was -0.196.
`CGCATGAC` gave an E-score of 0.122.
For `CCAATGTA`, the E-score was -0.115.
With `AGCATCAC` the E-score was -0.134.
`GCTTAAGC` gave an E-score of 0.18.
The E-score of `CGCAAGAC` is reported as 0.0262.
For `GACATAAC`, the E-score was -0.00816.
`AGACCCCT` gave an E-score of -0.283.
`GGGTGCAA` gave an E-score of -0.159.
The E-score of `CGCAATAG` is reported as 0.0483.
`GGTTGTAA` gave an E-score of -0.0835.
For `ACCTTCTG`, the E-score was -0.202.
With `ACATCGAG` the E-score was -0.179.
With `TACAGGGA` the E-score was -0.175.
`CAAGACCG` gave an E-score of 0.162.
With `CCTTACCA` the E-score was -0.14.
`CCCCGACA` gave an E-score of 0.126.
For `CAGGCTCC`, the E-score was 0.00596.
For `ATTTAGCG`, the E-score was 0.114.
With `GGCTGCGA` the E-score was 0.0297.
`ACCACTAA` has an E-score of -0.152.
`CGGCACTC` has an E-score of 0.136.
The E-score of `AAATTGAA` is reported as -0.13.

Study 3
Target: Interferon regulatory factor 7, full length, phosphomimetic (IRF7, Homo sapiens, UniProt Q92985, residues 1-503, S471D/S472D/S475D/S476D/S477D/S483D/S484D/S487D)
Method: protein-binding microarray
Molecule type: double-stranded DNA, one strand shown
Medium: in vitro
Tested at: 2200 nM top
Notes: 60-bp whole probe
With: salmon DNA 0.4 mg/ml
Reference: random background probes
Reading: higher = stronger binding
All sequences stand within: GCCTAGCAC … GTCTTGATTCGCTTGACGCTGCTG
Target sequence (chain): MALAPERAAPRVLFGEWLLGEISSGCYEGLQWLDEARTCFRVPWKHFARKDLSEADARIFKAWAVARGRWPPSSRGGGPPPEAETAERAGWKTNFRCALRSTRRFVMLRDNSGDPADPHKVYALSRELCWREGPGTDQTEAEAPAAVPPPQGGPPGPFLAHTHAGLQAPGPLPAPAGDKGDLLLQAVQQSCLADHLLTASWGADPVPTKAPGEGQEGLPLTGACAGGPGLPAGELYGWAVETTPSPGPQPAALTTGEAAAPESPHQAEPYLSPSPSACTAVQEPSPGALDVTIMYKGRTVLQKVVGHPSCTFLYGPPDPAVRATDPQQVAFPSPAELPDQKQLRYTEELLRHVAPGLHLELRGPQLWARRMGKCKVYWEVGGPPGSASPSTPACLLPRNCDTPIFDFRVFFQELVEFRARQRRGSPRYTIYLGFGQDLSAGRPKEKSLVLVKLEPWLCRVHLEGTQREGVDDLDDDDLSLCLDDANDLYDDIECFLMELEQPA
`AGTTTTCTCATTCGTCATTTCGTGCTA` — result for “fitted relative affinity”: 3.69 z-score.
For `GACGGTTTCGAACTGGGGACGTGCTAG`, “fitted relative affinity” read 3.02 z-score.
`TTAGGTTTCCTTTCCCTTTTGTGCTAG`: “fitted relative affinity” 4.86 z-score.
For `GCTCCTTCCCCTCTAGGTCTGTGCTAG`, “fitted relative affinity” read 1.54 z-score.
`TTTGATATCAGTCTCGATTAGTGCTAG`: “fitted relative affinity” 0.707 z-score.
`TTAGGTCTCCGTATCCTTTAGTGCTAG`: “fitted relative affinity” 0.909 z-score.
`GAAGAAATTTAATAGTCACTGTGCTAG`: “fitted relative affinity” -0.899 z-score.
`TTAGATATCGCGACTGGATTAGTGCTA`: “fitted relative affinity” 0.0365 z-score.
Under “fitted relative affinity”, `TTATTTTTTTTATTTATAAAGTGCTAG` is recorded as 0.908 z-score.
`TTAGATTTCAGCCTCGATTAGTGCTAG`: “fitted relative affinity” 0.255 z-score.
`TTAGGACTGCGACTGCTTTAGTGCTAG`: “fitted relative affinity” -0.266 z-score.
For `GCGGTTGGATCACAAGGTCAGTGCTAG`, “fitted relative affinity” read 0.418 z-score.
`GACGATATCGGGTATCGAGGCGTGCTA`: “fitted relative affinity” -0.0884 z-score.
`GACGGTTTCCTTATCCTTACGTGCTAG`: “fitted relative affinity” 3.17 z-score.
`GACGGACTGCTTCTCCTAACGTGCTAG` — result for “fitted relative affinity”: 0.567 z-score.
For `TCATTTTTGCAAGCTAAAACTGTGCTA`, “fitted relative affinity” read 0.685 z-score.
`TCCCATTCTGAATTCGAATGGTGCTAG` — result for “fitted relative affinity”: 1.83 z-score.
`TTAGGTATCGACTATCGGGTAGTGCTA` — result for “fitted relative affinity”: 0.185 z-score.
Under “fitted relative affinity”, `TTAGGTTTCGGTCTAGGTTAGTGCTAG` is recorded as 6.27 z-score.
`TTAGGTTTGCTTATCCTTTAGTGCTAG`: “fitted relative affinity” 1.13 z-score.
Under “fitted relative affinity”, `GACGGTACCGGTCTCGGGACGTGCTAG` is recorded as -0.453 z-score.
`ATCATTTTCGTTTTTATTATGTGCTAG` — result for “fitted relative affinity”: 10.1 z-score.
`GACGATATCAGTCTCGAAACGTGCTAG` — result for “fitted relative affinity”: 0.514 z-score.
`GACGGTTTCCGTTTCCTGACGTGCTAG`: “fitted relative affinity” 6.9 z-score.
`GACGAACAGGGGTTTCGAGACGTGCTA`: “fitted relative affinity” 1.41 z-score.

Study 4
Target: RNA binding protein fox-1 homolog 2, RRM domain, GST-SBP tag (RBFOX2, Homo sapiens, UniProt O43251-10, residues 100-194)
Method: RNA Bind-n-Seq
Molecule type: RNA
Medium: in vitro
Tested at: 365 nM
Notes: natural RNA segment, single round, ends assumed
Reference: no-protein control
Reading: higher = stronger binding
All sequences stand within: GGGAGUUCUACAGUCCGACGAUC … UGGAAUUCUCGGGUGCCAA
Construct (chain): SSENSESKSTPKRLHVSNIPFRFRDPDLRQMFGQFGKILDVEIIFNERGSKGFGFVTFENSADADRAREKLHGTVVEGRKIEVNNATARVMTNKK
`UGGAGAGAACCUCACCAAACAGCUGGUGUGGCCUGAGGGUGGCCAUGGUGGGAAAUGGGCAUGAGAAUAAAUACCUCCCCAAAUUCAAUCUGAGCCCAGCAGGAGAGGAU` — result for “RBNS enrichment (R)”: 0.647.
Under “RBNS enrichment (R)”, `GAUGACCUGGCCUACAGCAAAGGACCUUGAGCUUUAAAGUAUCACCUCCAUGGAAGCGGGGGCAUGCAAGGGCGAGACAGUUUUUCCUCAUCCCUUGCCAAGCUUCUCUU` is recorded as 1.32.
For `UACUGAUCAUUGAUAGUAUUACAAAUAAAUGUCUCUUCCUUUCUCUUCCUCCCUUCCUCCCCCUGCCUUCCUCUUAACCUAUGUGCUCAUCCUUGCUACUUGAGGCUGUU`, “RBNS enrichment (R)” read 1.41.
For `AAAACCUUGAAGUGCUGUAUAGUGAAGUAUAAAUUAAUGUUUUAUUGAUUUGUGAAGAAUUUAAGACUAUUAUAUAAUUAUCUUGGUGGAUCUAUUUUAUGCAUGACCUU`, “RBNS enrichment (R)” read 3.03.
Under “RBNS enrichment (R)”, `CUGUGACUCCAUGUACUCAUCCCAAGGUUGUAUCUGGAGCCUGUGGGCUGGCUAGAUGAUAUAGGUGACUGGCACCUAUUAAGAGUAUAUAACAUAAAUACCAUAAAAAG` is recorded as 0.598.
`AGUUCAUUCCACUUUAGGAAACAGAGCUGCCAAUUGAAACAGAAGAAGAAAAAAAAAAAAAGCAGCAGACAACACACUGUAGAGUCUUGCACACACACAAGUGCCCAGGC` — result for “RBNS enrichment (R)”: 0.699.
`CCGACAUACAUCACAAAGGCUGCUUCAUGGCUGGGUGUGGGACCAGAUGCCAGCAAGGAUGGAAGCAUCAGGCUCACAGGUGUGUGUGUGUGUGUGCACGCGUUCGCACA`: “RBNS enrichment (R)” 4.72.
`UGGGAGGCAGCUGCAGAUGGGAUUUCUGAGUUAAGGACAAGGUCUACAGAGUGAGUUCCAGGACAGCCGGGGCUAUACAGAGAAACCCUGGGGAAACCCUUGGGGAAAAA`: “RBNS enrichment (R)” 0.267.
Under “RBNS enrichment (R)”, `AAUAGAGCCUGUGCAUGGACCCAGCACUGUCAAUAGGCACAGGACUCUCCCUCCUCCGGCUGUGACUGGCAGAUUGUCACCACAGUAGAGAACCUUUCCCCUGUACUUUU` is recorded as 0.997.
`UCAGAAGAAGAAGGAACCCAUAGCUUGGUGUCAUUAACAUAAUUAUUUUAAGCCUUAUCCAGCAGCCAUAAUUUGAAUAACUCUACGAGACCAGAGAGACUGUAGUUCCC` — result for “RBNS enrichment (R)”: 0.331.
Under “RBNS enrichment (R)”, `CCAGACAGAUUGAGAGAGAGUCACUUAAGCUGAGAGAGACUUAAGGGUGAGACUGGCGUGCAGGCGUGUGACGGUGUGUUUGGAGUAUUGCCAUUCCCAUCGCUGUUAGC` is recorded as 0.712.
`GCUAUUUACCAGGGUAGAAAAAGGAGCUUACCUCCCACCUUUGGUCCUAAGUCCCUGCCCCCUCCCCUUCACACCAUAACUAGGUAACAGUUUGAUAACUAGGGAAGAAA`: “RBNS enrichment (R)” 0.263.
